Measurements pooled from the literature.
Every numbered part comes from another study and shows a few of its results, in no order.

Block 1 — technique: protein binding microarray; form: double-stranded DNA, one strand shown; matrix: in vitro; tested at: not given; reference: not given; direction: higher = stronger binding
Target: Histone acetyltransferase KAT6A, winged helix 1, GST fusion (KAT6A, Homo sapiens, UniProt Q92794, residues 1-85)
Setting: 8-mer, flanks averaged, mean of 2 arrays, mostly near background
Construct (chain): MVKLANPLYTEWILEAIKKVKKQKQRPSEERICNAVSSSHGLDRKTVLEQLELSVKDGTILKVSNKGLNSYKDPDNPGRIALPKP
With `ATATCTCA` the E-score was -0.183.
`CATAGCGG` gave an E-score of 0.291.
`CTCATAAA` has an E-score of -0.0463.
With `AAATACTA` the E-score was -0.112.
`ATGTGCAA` gave an E-score of -0.206.
With `GCTTTTGA` the E-score was 0.0382.
The E-score of `AATGCGTA` is reported as 0.262.
The E-score of `CTCGGAGA` is reported as 0.0629.
For `GATTGAGA`, the E-score was -0.166.
With `AGCTGGGG` the E-score was -0.0903.
`CTTCATGA` has an E-score of -0.0144.
The E-score of `GTCAATTA` is reported as 0.122.
`CCGGAGCG` has an E-score of 0.352.
The E-score of `CGATCCCC` is reported as 0.102.
`GCTAAGAC` has an E-score of 0.00364.
With `ACAGGTAA` the E-score was -0.157.
For `AAACAAAT`, the E-score was -0.191.
`ATTTTGGG` has an E-score of -0.218.
`GAATTCTC` gave an E-score of -0.0548.
With `CGAACGTA` the E-score was -0.0668.

Block 2 — technique: RNAcompete; form: RNA; matrix: in vitro; tested at: 20 nM; setting: 7-mer, probes averaged, single round; reference: mean of 7-mers; direction: higher = stronger binding
Target: PABPC1L2, full length, GST fusion (mouse, UniProt A0ABA7IW68)
Target sequence (chain): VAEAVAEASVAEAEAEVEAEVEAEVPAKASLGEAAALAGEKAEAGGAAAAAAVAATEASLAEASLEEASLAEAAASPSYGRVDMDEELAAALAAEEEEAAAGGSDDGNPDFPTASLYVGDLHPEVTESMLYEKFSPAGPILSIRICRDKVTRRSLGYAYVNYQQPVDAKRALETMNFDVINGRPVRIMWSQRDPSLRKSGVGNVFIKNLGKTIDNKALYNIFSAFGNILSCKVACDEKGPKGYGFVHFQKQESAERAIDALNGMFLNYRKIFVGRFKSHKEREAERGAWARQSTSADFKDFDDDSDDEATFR
With `GGCCCAU` the 7-mer Z-score was -0.0754.
The 7-mer Z-score of `AGAUCUU` is reported as -0.331.
`CCAUUUG` has a 7-mer Z-score of -0.423.
With `GUUGCCC` the 7-mer Z-score was -0.195.
`GGGACUC` has a 7-mer Z-score of -0.0101.
`CGUCACA` has a 7-mer Z-score of -0.139.
With `GACCACG` the 7-mer Z-score was 0.0225.
`GCACCCG` has a 7-mer Z-score of -0.195.
`AACUUGC` gave a 7-mer Z-score of -0.0663.
`UUUUUUC` has a 7-mer Z-score of -0.24.
For `UAAACAC`, the 7-mer Z-score was 1.82.
`UCCUUUA` gave a 7-mer Z-score of -0.0808.
`CACCUUA` has a 7-mer Z-score of -0.253.
`AUUCUGC` gave a 7-mer Z-score of -0.271.
The 7-mer Z-score of `CGGUCCG` is reported as -0.253.
`CUCGGGC` gave a 7-mer Z-score of 0.0116.
`CGUAUUU` gave a 7-mer Z-score of -0.331.
With `ACGAAGA` the 7-mer Z-score was 0.0569.
For `CGAGAGU`, the 7-mer Z-score was -0.141.
With `AAGGGCA` the 7-mer Z-score was 0.495.

Block 3 — technique: RNA Bind-n-Seq; form: RNA; matrix: in vitro; tested at: 200 nM; setting: whole 134-nt RNA, ends assumed; with: 150 mM LiCl; reference: input library; direction: higher = stronger binding; each molecule: 7-deaza-guanosine replaces G
Target: Fragile X messenger ribonucleoprotein 1, C-terminal low-complexity region (Fmr1, Mus musculus, UniProt P35922)
Shared flanks, not repeated: GGGAGUUCUACAGUCCGACGAUC … UGGAAUUCUCGGGUGUCAAGG
For `AAGUCCUGUGCUACACAUCGUAUGUACCGAAUCGGGGAAAGGGGAAAGGGGAAAGGGAAAGUAUUAUGUUACGCCGUUCGGAUCUGCACU`, the log2 enrichment was 0.999.
`AGUCCUGUGCUACACAUCGUAUGUACCGAAUCGGGGUUUUGGGUUUUGGUUUUGGGGAAAGUAUUAUGUUACGCCGUUCGGAUCUGCACU` has a log2 enrichment of -2.06.
`UUGGACUUGGAGCAUCUGCUCAGUGAGUCUCCAGAAGGAAGUCCCUUCCGAGAUAUGGAUGAUGGAAGUGAUUCCCUUGGGGUGGGAUUG` gave a log2 enrichment of -3.28.
`CAAGUCCUGUGCUACACAUCGUAUGUACCGAAUCGGGGCCCGGCCCGGCCCGGGGAAAGUAUUAUGUUACGCCGUUCGGAUCUGCACUUC` gave a log2 enrichment of -1.07.
With `AGUCCUGUGCUACACAUCGUAUGUACCGAAUCGGGUUUGGGUUUUUUUGGGAAAGGGAAAGUAUUAUGUUACGCCGUUCGGAUCUGCACU` the log2 enrichment was -1.14.
With `CACAGACAACACGCACCCACGCAGACACAGAGGGAAGGGGUUGGGAUGGGGACAGGGUGCACAGCAGGGCGGGGUAGGACCCCAGCCCCU` the log2 enrichment was 0.538.
The log2 enrichment of `UGGGAGGUGGAUUUUGUUUAUUUUUUUAGCUCAUUUCCAGGGGUGGGAAUUAUUUUUUAAUAUGUGUCAUGAAUAAAGUUGUUUUUGAAA` is reported as -0.105.
For `CUCAAGUCCUGUGCUACACAUCGUAUGUACCGAAUCGGGAAGGGGAAGGAAGGAAAGUAUUAUGUUACGCCGUUCGGAUCUGCACUUCCA`, the log2 enrichment was -0.944.

Block 4 — technique: universal PBM; form: double-stranded DNA, one strand shown; matrix: in vitro; tested at: not given; direction: higher = stronger binding
Target: Sal-like protein 4, full length isoform B (SALL4, Homo sapiens, UniProt Q9UJQ4-2, residues 1-616)
Setting: 8-mer, flanks averaged, mean of replicates
The E-score of `GACCTAAA` is reported as -0.00035.
The E-score of `GGAGTAAA` is reported as 0.245.
`ACCAATGC` has an E-score of -0.122.
For `CATTTCCA`, the E-score was 0.143.
`GAAAAAGA` has an E-score of 0.0939.
With `CGCAGGAA` the E-score was -0.202.
With `CTCATACC` the E-score was 0.157.
The E-score of `CACGTCGG` is reported as -0.224.
`AATCGATC` gave an E-score of -0.129.
With `CTGATACA` the E-score was 0.0716.
For `GTAAAGAC`, the E-score was 0.0541.
With `ATGTGCCG` the E-score was -0.0901.
For `CACCTATA`, the E-score was 0.213.
The E-score of `ACTGGCAT` is reported as -0.138.
`ACAGTGTC` has an E-score of -0.117.
`GAGGTTTA` gave an E-score of 0.0777.
`GAGCGCTA` gave an E-score of -0.142.
For `CGCAGTAA`, the E-score was 0.0939.
`CGATGGGC` gave an E-score of -0.284.
`CAGAATTA` has an E-score of 0.154.
`CGTGTTTA` has an E-score of 0.174.
`GAACACAA` gave an E-score of 0.0853.
With `AGTTTAAA` the E-score was 0.23.
With `AACCGTAG` the E-score was -0.191.
The E-score of `AAGTCTTG` is reported as -0.00087.

Block 5 — technique: competition protein-binding microarray; form: double-stranded DNA, one strand shown; matrix: in vitro; tested at: 2 µM; with: Pho4 competitor, 0.05 µM; direction: higher = stronger binding; shared flanks, not repeated: … GTCTTGATTCGCTTGACGCTGCTG
Target: Centromere-binding protein 1, full length, His-tagged (CBF1, Saccharomyces cerevisiae, UniProt P17106, residues 1-351)
Sequence of UniProt P17106 (whole entry, looked up): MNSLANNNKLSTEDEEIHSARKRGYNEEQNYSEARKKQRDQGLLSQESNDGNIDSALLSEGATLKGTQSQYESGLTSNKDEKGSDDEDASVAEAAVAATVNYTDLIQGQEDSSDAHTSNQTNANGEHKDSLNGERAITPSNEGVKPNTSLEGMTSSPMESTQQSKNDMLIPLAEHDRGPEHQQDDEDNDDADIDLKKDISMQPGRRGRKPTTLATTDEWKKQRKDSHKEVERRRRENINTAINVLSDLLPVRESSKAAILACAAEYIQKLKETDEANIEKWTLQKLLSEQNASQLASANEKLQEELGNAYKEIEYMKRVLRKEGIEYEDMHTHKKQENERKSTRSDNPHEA
Setting: whole 60-bp probe, lowest competitor level
For `AAAGCGGTAATTTGCTGCGTGGGTGCAGATATCTAT`, the fluorescence intensity was 71.4 a.u.
`TAATATAACGCCTTTATCGTGGGACTCTTATTAACC` has a fluorescence intensity of 72.4 a.u.
With `ACCCGGGTGCTTCGTCACGTGCAAATCAAATATGAA` the fluorescence intensity was 8150 a.u.
`ATCGTTTATAGTGGGCATGTGGCTGGTTGAACAATG` has a fluorescence intensity of 141 a.u.
`TGCGCAACAACTTGTCACACGACTTTATGTCTAGAA` gave a fluorescence intensity of 150 a.u.
`CACTTCACCAAACACAACGTGCTTTCCGTCCAAATG` gave a fluorescence intensity of 139 a.u.
`GCCGGAAAAAAAAAGCACGCATCCGGCAAGCACACT` has a fluorescence intensity of 82 a.u.
The fluorescence intensity of `CTAACGAAGGTTTGTTCGGTGGGTGACAAGCCAAGT` is reported as 67.3 a.u.
`AAAAGTGTCTGGACCTTTTTTTTCTCATGCGATTTT` gave a fluorescence intensity of 77.2 a.u.
`CTTTTGCATCCGAGCCTCCTGGATAATAACTTCAAT` has a fluorescence intensity of 72.9 a.u.
`TGCGCAACAACTTGATATGTGGGTGTATGTCTAGAA` gave a fluorescence intensity of 74 a.u.
`AAGCTCGGCTAAGGCAACGTGCATCCCTCTAGAGAC` gave a fluorescence intensity of 123 a.u.
With `CTAACGAAGGTTTGCGCCGTGGGTGACAAGCCAAGT` the fluorescence intensity was 73.5 a.u.
`TTTGTGGTTTTCAGCCGCGTGTATACCTTCAGCTTG` gave a fluorescence intensity of 76.8 a.u.
The fluorescence intensity of `AAATTACTAAGTTACCACGTGTTTTACCCCGTATGA` is reported as 1760 a.u.
`CTTCTGTAAATTTGTCACACTACTTGACGCGCCCCG` has a fluorescence intensity of 132 a.u.
With `CGGGGTTAAGTTTGCGGTGTGGGTGGCTTGCAGCAG` the fluorescence intensity was 64 a.u.
With `TATATTGTTTGTTTGCACGTTTGATAAGTCCCTTAG` the fluorescence intensity was 113 a.u.
With `GGTGCGCCATTATCGGTTGTGATGAACTACTGGTTG` the fluorescence intensity was 77.2 a.u.

A few entries again (block 3):
`AGUCCUGUGCUACACAUCGUAUGUACCGAAUCGGGGUUUUGGGUUUUGGUUUUGGGGAAAGUAUUAUGUUACGCCGUUCGGAUCUGCACU` has a log2 enrichment of -2.06.
`UUGGACUUGGAGCAUCUGCUCAGUGAGUCUCCAGAAGGAAGUCCCUUCCGAGAUAUGGAUGAUGGAAGUGAUUCCCUUGGGGUGGGAUUG` gave a log2 enrichment of -3.28.
`CAAGUCCUGUGCUACACAUCGUAUGUACCGAAUCGGGGCCCGGCCCGGCCCGGGGAAAGUAUUAUGUUACGCCGUUCGGAUCUGCACUUC` gave a log2 enrichment of -1.07.
With `AGUCCUGUGCUACACAUCGUAUGUACCGAAUCGGGUUUGGGUUUUUUUGGGAAAGGGAAAGUAUUAUGUUACGCCGUUCGGAUCUGCACU` the log2 enrichment was -1.14.
With `CACAGACAACACGCACCCACGCAGACACAGAGGGAAGGGGUUGGGAUGGGGACAGGGUGCACAGCAGGGCGGGGUAGGACCCCAGCCCCU` the log2 enrichment was 0.538.
The log2 enrichment of `UGGGAGGUGGAUUUUGUUUAUUUUUUUAGCUCAUUUCCAGGGGUGGGAAUUAUUUUUUAAUAUGUGUCAUGAAUAAAGUUGUUUUUGAAA` is reported as -0.105.
For `CUCAAGUCCUGUGCUACACAUCGUAUGUACCGAAUCGGGAAGGGGAAGGAAGGAAAGUAUUAUGUUACGCCGUUCGGAUCUGCACUUCCA`, the log2 enrichment was -0.944.
